Experimental data gathered from unrelated publications.
Lines come from different studies, so protocols differ. Several values in a cell are separate wells, animals, samples, runs or records.
Target: Phosphorylase b kinase gamma catalytic chain, skeletal muscle/heart isoform (PHKG1, Homo sapiens, UniProt Q16816)

COc1cc(Nc2nc(C)cc(-c3cnn4nc(OC)ccc34)n2)cc(C(F)(F)F)c1  remaining activity (inhibitor; 1 µM; reference: control): 85%
CCn1cc(C(=O)O)c(=O)c2c(N)c(F)c(NC3CCCCC3)cc21  inhibition (kinase activity; 0.1 µM, added: ATP at Km): -4.2%
C=CC(=O)N1Cc2nc(-c3cc(-c4cc(Cl)cnc4Cl)c(F)cc3F)n(-c3ccncn3)c2C1  inhibition (cell-free assay, inhibitor; 1 µM): 0.4%
CNC1C[S+]2CC[S+]3CC[S+](C1)[Ru-4]321([N]=C=S)[n]2c3ccc(OC)cc3c3c4c(c5cc(F)c[n+]1c5c32)C(=O)NC4=O (centres unmarked)  remaining binding (KinomeScan; 0.1 µM; reference: untreated): 56%
Nc1ncc2c(n1)-c1c([nH]c3ccc(C4=CCOCC4)cc13)CCC2  remaining binding (binding, competition with immobilised ligand; 1 µM): 66%
Nc1nc(Nc2ccccc2)sc1C(=O)c1ccccc1  remaining activity (enzyme activity, inhibitor; 10 µM): 74%
C=CC(=O)N1CCc2ccc(-n3c(=O)ccc4cnc5ccc(-c6cnn(C)c6)cc5c43)cc21  remaining binding (KINOMEscan; 1 µM; reference: DMSO control): 100%
C=CC(=O)Nc1cc(-c2nn(C3CCN(CCNC(=O)[C@H](C)CCC45CC6CC(CC(C6)C4)C5)CC3)c3ncnc(N)c23)ccc1Oc1ccccc1  inhibition (inhibitor, KiNativ profiling; biochemical; 2 µM): 28.7%
NC(=O)C[C@H]1CCc2sc3ncnc(O[C@H]4CC[C@H](N5CCOCC5)CC4)c3c21  inhibition (enzyme activity, inhibitor; 10 µM): 17%
Cc1ccc(-c2c(/C=C(\C#N)C(=O)NC(C)C)n(CCCO)c3ncnc(N)c23)cc1  remaining binding (cell-free assay, competition with immobilised ligand; 1 µM): 97%
CN1CC[C@@H](COc2cnc(C#N)cc2-c2ccn3nc(NC(=O)C4CC4)cc3c2)C1  inhibition (enzyme activity, inhibitor; 1 µM): 6%
C=CC(=O)Nc1cccc(-c2cnc3[nH]cc(C(=O)NC(C)(C)C)c3n2)c1  inhibition (kinase activity; 0.1 µM): 0% and -6%
Cc1cccc(O[C@H]2CCC[C@@H](C(C)CNCc3ccncc3)C2)c1 (relative stereo)  inhibition (enzyme activity, inhibitor; 10 µM): -12%
CC(C)=CC1OC(C)(C)C2C=C3C(=O)C(Cl)=CC(O)C3C3C(O)C4OC4C(=O)C132 (centres unmarked)  remaining binding (cell-free assay, competition with immobilised ligand; 10 µM): 97%

For quick reference, copied from above:
CNC1C[S+]2CC[S+]3CC[S+](C1)[Ru-4]321([N]=C=S)[n]2c3ccc(OC)cc3c3c4c(c5cc(F)c[n+]1c5c32)C(=O)NC4=O (centres unmarked)  remaining binding (KinomeScan; 0.1 µM; reference: untreated): 56%
